Results of several laboratories.
Compare with care: the assays were run in different laboratories. ± gives the spread as reported.

Compound | cell line | assay | setting | EC50 [µM]
CCCCCCCCC1(CCCCCCCC)c2cc(C#Cc3cc4[n+]5c(c3)-c3cccc[n+]3[Ir-3]536([n+]5ccccc5-4)[n+]4ccccc4-c4cc(-c5ccccc5)cc([n+]43)-c3cccc[n+]36)ccc2-c2ccc(C#Cc3cc4[n+]5c(c3)-c3cccc[n+]3[Ir-3]536([n+]5ccccc5-4)[n+]4ccccc4-c4cc(-c5ccccc5)cc([n+]43)-c3cccc[n+]36)cc21.F[P-](F)(F)(F)(F)F.F[P-](F)(F)(F)(F)F.F[P-](F)(F)(F)(F)F.F[P-](F)(F)(F)(F)F.F[P-](F)(F)(F)(F)F.F[P-](F)(F)(F)(F)F | SK-MEL-28 | cell viability, resazurin | 16 h plus 48 h, dark | 16.9 ± 0.8
C(=N\Nc1nc(-c2ccccn2)nc2ccccc12)/c1ccccc1 | LDR | silenced GFP reporter derepression, microscopy | overnight | 20
COC[C@H](NC(=O)[C@H](CCc1ccccc1)NC(=O)CN1CCOCC1)C(=O)N[C@H](/C=C/S(C)(=O)=O)Cc1cccs1 | HFF, non-confluent | cell viability, CellTiter-Blue | 1 h | > 250
CCN(CC)CCCNC(=O)CSc1c2c(nc3cc(Cl)ccc13)CCCC2 | LDR | silenced GFP reporter derepression, microscopy | overnight | 10
Cc1cc(C)nc(NC(=S)N2CCN(Cc3ccc(C(F)(F)F)cc3)CC2)c1 | MT-3 | cytotoxicity, CellTiter-Glo | 4 days | 9
Cc1ccc(CC(=O)N(CCCn2ccnc2)c2nc3ccccc3s2)c(C)c1 | SW620 organoids | E-cadherin reporter | 2-fold induction | 8.3
C#CC[C@@H](/C=C/S(C)(=O)=O)NC(=O)[C@H](COC)NC(=O)[C@H](CCc1ccccc1)NC(=O)CN1CCOCC1 | HFF, non-confluent | cell viability, CellTiter-Blue | 1 h | > 250
CCC(=O)N1CCN(c2ccc(NC(=O)c3ccc([N+](=O)[O-])o3)cc2Cl)CC1 | LDR | silenced GFP reporter derepression, microscopy | overnight | 2
CC(C)C[C@@H](/C=C/S(C)(=O)=O)NC(=O)[C@H](CC(C)C)NC(=O)[C@H](CCc1ccccc1)NC(=O)CN1CCOCC1 | HFF, non-confluent | cell viability, CellTiter-Blue | 1 h | 75.7 ± 12.7
Cc1cc2cc(O)c(O)cc2c(O)c1-c1c(C)cc2cc(O)c(O)cc2c1O | H1299 | cell viability, ATP luminescence | 72 h | 13.4
CCCCCCCCC1(CCCCCCCC)c2cc(-c3cc4[n+]5c(c3)-c3cccc[n+]3[Ir-3]536([c]5ccccc5-c5cc(-c7ccccc7)cc([n+]53)-c3cccc[c]36)[n+]3ccccc3-4)ccc2-c2ccc(-c3cc4[n+]5c(c3)-c3cccc[n+]3[Ir-3]536([c]5ccccc5-c5cc(-c7ccccc7)cc([n+]53)-c3cccc[c]36)[n+]3ccccc3-4)cc21.F[P-](F)(F)(F)(F)F.F[P-](F)(F)(F)(F)F | SK-MEL-28 | cell viability, resazurin | 16 h before light, visible light 100 J/cm2 | 1.05 ± 0.01
Cc1ccc2oc(=O)c(-c3nc4cnccc4[nH]3)cc2c1 | endometrial stem cells | cell proliferation | 72 h | 100
O=C1NCCN1C[C@H](O)Cn1c2ccc(F)cc2c2cc(F)ccc21 | IMR-90 | cell growth or viability | 72 h | 60.8
CCc1nnc(NC(=O)c2cccc(C(=O)Nc3nnc(CC)s3)n2)s1 | LDR | silenced GFP reporter derepression, microscopy | overnight | 8
COC[C@H](NC(=O)[C@H](CCc1ccccc1)NC(=O)c1cnc(C)s1)C(=O)N[C@H](/C=C/S(C)(=O)=O)Cc1cccs1 | HFF, non-confluent | cell viability, CellTiter-Blue | 1 h | > 250
C=CC(=O)Nc1cc(-c2nn(C3CCN(CCNC(=O)[C@H](C)CCC45CC6CC(CC(C6)C4)C5)CC3)c3ncnc(N)c23)ccc1Oc1ccccc1 | PC-9/GR4 with HER3 C721S | cell proliferation, CellTiter-Glo | 72 h | 5.5
CC1=C/C(=N\N=C(/S)Nc2cccnc2)CC(C)(C)C1 | LDR | silenced GFP reporter derepression, microscopy | overnight | 3
CC(C)C[C@@H](/C=C/S(C)(=O)=O)NC(=O)[C@H](CC(C)C)NC(=O)[C@H](Cc1ccc2ccccc2c1)NC(=O)CN1CCOCC1 | HFF, non-confluent | cell viability, CellTiter-Blue | 72 h | 1.67 ± 0.26
CC1=C(C2=C(C)C(=O)c3c(cc(O)c(O)c3C(C)C)C2=O)C(=O)c2cc(O)c(O)c(C(C)C)c2C1=O (racemic) | BP3 human lymphoma | apoptosis, annexin V-PI staining | 24 h | 13.4 ± 1.2
O=C(NN1C(=O)c2ccccc2NC1c1ccc([N+](=O)[O-])o1)c1ccc([N+](=O)[O-])cc1 (stereo not shown) | LDR | silenced GFP reporter derepression, microscopy | overnight | 32
Cc1cc(C)cc(OCC(N)c2ccccc2)c1 (stereo not shown) | normal hiPSC cardiomyocytes | APD75 prolongation, kinetic imaging cytometry | – | > 200
COC[C@H](NC(=O)[C@H](CCc1ccccc1)NC(=O)CN1CCOCC1)C(=O)N[C@H](/C=C/S(C)(=O)=O)CC(C)C | HFF, non-confluent | cell viability, CellTiter-Blue | 1 h | > 250
Oc1c(/N=N/c2ccccn2)ccc2ccccc12 | LDR | silenced GFP reporter derepression, microscopy | overnight | 32
CC[C@@H](/C=C/S(C)(=O)=O)NC(=O)[C@H](COC)NC(=O)[C@H](CCc1ccccc1)NC(=O)CN1CCOCC1 | HFF, non-confluent | cell viability, CellTiter-Blue | 72 h | 14 ± 3.58
O=C(CSc1cccc[n+]1[O-])c1ccccc1Br | LDR | silenced GFP reporter derepression, microscopy | overnight | 28

A few entries again:
Compound | cell line | assay | setting | EC50 [µM]
Cc1cc2cc(O)c(O)cc2c(O)c1-c1c(C)cc2cc(O)c(O)cc2c1O | H1299 | cell viability, ATP luminescence | 72 h | 13.4
O=C1NCCN1C[C@H](O)Cn1c2ccc(F)cc2c2cc(F)ccc21 | IMR-90 | cell growth or viability | 72 h | 60.8
